Measurements pooled from the literature.
Each line is one published result; not all experiments were run side by side.
ADORA1: Adenosine receptor A1 (ADORA1, Homo sapiens, UniProt P30542)
Sequence of UniProt P30542 (whole entry, looked up): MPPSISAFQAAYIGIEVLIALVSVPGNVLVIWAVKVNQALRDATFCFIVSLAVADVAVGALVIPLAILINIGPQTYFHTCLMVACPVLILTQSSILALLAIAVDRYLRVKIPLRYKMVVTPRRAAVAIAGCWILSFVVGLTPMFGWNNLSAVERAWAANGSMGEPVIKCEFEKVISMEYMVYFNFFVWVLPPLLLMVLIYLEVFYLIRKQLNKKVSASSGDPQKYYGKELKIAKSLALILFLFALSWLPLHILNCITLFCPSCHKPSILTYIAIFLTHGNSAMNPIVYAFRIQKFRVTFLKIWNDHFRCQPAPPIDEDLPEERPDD
RIPK1: Receptor-interacting serine/threonine-protein kinase 1 (RIPK1, Homo sapiens, UniProt Q13546)
Sequence of UniProt Q13546 (whole entry, looked up): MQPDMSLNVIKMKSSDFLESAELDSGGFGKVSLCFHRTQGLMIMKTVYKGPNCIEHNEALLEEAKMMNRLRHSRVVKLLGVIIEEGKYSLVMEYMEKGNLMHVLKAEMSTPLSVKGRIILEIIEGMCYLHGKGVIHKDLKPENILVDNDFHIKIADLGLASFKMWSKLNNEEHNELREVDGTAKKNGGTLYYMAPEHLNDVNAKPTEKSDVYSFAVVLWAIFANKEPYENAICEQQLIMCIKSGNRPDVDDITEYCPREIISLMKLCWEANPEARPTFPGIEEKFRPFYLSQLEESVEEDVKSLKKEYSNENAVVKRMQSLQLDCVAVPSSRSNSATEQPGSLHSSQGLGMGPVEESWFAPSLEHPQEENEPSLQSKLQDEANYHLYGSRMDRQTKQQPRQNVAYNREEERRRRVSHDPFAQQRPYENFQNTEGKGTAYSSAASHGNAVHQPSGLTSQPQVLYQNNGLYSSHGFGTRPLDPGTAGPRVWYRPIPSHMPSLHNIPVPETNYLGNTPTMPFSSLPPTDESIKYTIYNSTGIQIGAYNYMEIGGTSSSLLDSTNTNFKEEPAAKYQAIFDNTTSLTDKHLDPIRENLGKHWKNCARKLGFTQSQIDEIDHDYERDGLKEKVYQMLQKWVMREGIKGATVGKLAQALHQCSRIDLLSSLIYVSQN
Sequence of UniProt P18031 (whole entry, looked up): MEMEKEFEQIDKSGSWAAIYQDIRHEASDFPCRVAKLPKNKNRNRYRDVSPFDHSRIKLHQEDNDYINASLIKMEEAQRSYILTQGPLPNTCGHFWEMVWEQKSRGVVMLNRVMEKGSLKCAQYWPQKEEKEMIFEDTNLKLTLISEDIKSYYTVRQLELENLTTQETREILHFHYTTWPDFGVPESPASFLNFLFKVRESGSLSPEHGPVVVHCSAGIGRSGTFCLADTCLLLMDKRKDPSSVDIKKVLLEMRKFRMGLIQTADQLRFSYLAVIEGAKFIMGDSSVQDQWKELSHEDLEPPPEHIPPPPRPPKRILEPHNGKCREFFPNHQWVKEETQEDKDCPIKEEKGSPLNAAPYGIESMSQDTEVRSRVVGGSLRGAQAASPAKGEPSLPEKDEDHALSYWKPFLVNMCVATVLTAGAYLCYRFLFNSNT
Sequence of UniProt P20309 (whole entry, looked up): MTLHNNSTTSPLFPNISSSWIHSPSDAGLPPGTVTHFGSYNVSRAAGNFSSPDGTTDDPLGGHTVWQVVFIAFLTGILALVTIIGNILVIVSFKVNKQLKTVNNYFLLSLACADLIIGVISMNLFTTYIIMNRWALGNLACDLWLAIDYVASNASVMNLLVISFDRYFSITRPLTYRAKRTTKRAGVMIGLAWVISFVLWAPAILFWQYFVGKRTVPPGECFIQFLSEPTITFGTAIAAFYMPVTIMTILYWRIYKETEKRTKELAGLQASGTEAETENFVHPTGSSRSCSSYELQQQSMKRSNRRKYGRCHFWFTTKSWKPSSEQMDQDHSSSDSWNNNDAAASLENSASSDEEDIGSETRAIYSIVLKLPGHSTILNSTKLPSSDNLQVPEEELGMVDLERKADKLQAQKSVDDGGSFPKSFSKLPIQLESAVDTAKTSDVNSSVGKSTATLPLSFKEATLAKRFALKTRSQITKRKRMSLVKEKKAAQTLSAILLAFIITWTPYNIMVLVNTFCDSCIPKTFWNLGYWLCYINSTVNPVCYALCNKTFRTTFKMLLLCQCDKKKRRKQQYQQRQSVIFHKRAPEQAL
Sequence of UniProt A0AVT1 (whole entry, looked up): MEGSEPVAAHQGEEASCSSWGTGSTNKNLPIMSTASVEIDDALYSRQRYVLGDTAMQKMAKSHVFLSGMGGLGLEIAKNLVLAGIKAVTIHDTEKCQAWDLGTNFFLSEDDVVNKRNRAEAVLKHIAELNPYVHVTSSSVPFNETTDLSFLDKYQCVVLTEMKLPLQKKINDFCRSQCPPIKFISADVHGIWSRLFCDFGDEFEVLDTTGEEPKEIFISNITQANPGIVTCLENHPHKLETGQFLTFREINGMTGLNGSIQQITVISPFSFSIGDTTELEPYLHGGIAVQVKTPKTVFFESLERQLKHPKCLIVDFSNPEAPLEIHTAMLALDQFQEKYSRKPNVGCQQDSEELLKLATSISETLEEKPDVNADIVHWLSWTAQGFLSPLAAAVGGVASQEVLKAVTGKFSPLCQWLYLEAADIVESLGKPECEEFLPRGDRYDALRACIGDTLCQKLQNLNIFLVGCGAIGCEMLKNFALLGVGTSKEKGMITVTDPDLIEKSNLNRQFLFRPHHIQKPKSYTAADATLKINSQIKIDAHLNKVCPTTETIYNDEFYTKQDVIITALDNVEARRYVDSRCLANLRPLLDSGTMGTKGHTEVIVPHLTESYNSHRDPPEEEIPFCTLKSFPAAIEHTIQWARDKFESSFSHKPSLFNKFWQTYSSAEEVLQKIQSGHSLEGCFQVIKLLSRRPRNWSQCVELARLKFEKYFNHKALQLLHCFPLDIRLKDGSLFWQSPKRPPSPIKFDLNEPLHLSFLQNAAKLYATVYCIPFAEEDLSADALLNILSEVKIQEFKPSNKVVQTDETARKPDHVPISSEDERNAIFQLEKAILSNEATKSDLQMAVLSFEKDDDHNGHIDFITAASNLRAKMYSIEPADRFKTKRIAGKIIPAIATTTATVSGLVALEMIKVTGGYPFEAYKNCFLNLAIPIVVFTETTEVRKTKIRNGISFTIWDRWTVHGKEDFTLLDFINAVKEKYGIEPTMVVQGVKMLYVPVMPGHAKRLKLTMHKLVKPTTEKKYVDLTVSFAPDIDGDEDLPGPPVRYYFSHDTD
Sequence of UniProt Q6GPI1 (whole entry, unmodified, looked up): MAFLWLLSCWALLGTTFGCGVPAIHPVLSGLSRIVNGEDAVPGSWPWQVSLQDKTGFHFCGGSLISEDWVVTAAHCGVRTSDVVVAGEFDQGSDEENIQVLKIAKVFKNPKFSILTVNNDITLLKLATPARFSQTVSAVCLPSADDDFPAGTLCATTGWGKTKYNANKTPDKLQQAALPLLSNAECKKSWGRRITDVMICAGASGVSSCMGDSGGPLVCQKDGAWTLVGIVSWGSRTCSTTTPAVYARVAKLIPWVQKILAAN
Sequence of UniProt O14744 (whole entry, looked up): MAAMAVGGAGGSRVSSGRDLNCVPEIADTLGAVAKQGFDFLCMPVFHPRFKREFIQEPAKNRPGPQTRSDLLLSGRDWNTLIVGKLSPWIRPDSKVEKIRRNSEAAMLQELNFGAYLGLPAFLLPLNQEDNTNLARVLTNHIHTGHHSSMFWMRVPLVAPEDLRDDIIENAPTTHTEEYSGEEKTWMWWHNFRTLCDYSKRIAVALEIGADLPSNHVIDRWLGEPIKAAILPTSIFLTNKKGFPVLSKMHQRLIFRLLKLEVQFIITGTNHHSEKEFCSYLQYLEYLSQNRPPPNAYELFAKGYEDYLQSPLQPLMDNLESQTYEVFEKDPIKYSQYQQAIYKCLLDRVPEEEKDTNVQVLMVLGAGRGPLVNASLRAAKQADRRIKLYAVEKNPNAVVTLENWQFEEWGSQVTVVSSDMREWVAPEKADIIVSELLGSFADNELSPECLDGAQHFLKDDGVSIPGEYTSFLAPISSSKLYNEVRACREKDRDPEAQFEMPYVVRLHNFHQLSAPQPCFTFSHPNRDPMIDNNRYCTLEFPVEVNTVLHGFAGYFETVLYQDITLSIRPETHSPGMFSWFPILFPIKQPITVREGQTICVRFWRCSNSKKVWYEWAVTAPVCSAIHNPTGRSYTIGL
Sequence of UniProt P10415 (whole entry, looked up): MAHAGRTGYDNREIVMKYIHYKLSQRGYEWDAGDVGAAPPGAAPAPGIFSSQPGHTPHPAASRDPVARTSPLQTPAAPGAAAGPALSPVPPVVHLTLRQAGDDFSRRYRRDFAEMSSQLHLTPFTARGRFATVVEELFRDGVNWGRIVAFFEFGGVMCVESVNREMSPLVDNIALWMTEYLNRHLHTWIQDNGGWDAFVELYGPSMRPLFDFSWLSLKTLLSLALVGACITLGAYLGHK
Sequence of UniProt P21462 (whole entry, looked up): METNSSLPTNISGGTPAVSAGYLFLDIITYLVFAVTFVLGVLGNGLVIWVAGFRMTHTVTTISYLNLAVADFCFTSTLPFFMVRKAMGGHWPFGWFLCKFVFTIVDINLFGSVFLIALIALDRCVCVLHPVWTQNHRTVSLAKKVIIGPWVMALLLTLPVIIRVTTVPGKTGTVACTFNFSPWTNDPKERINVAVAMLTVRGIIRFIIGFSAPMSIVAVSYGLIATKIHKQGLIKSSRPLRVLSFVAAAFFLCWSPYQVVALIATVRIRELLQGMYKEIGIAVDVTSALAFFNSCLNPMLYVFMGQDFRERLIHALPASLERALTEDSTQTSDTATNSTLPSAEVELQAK

Compound | target | assay | system | conditions | how to read | selectivity ratio
CCCC[C@H](NC(C)=O)C(=O)N[C@@H](CO)C(=O)N[C@H](C(=O)N1CCC[C@H]1C(=O)N[C@]1(C)CCCCCCC=CCCC[C@@](C)(C(=O)N[C@@H](Cc2ccccc2)C(=O)N[C@@H](CCCCN)C(=O)N[C@@H](CCCNC(=N)N)C(=O)N[C@@H](CC(C)C)C(=O)N[C@@H](CCC(N)=O)C(N)=O)NC(=O)[C@H](CCCNC(=N)N)NC(=O)[C@H](CCCC)NC(=O)[C@H](CC(C)C)NC(=O)[C@H](CCCNC(=N)N)NC(=O)[C@H](CCCNC(=N)N)NC(=O)[C@H](CCCNC(=N)N)NC1=O)[C@@H](C)O | UBA6 (Homo sapiens, UniProt A0AVT1) | thioester transfer to USE1, inhibitor | – | – | reference: IC50 of UBE1 over target | 5 fold
COc1cccc(Cc2cc(CCC(=O)NCCNc3cccc4c(S(=O)(=O)O)cccc34)nn(CC(=O)Nc3ccc(Br)cc3)c2=O)c1 | FPR1 (Homo sapiens, UniProt P21462) | calcium mobilization, antagonist | HL-60 transfected with FPR1 or FPR2 | – | reference: FPR1 over FPR2 | 1000 fold
COc1ccc(-c2nc(CSc3nc(N)c(C#N)c(-c4ccc5c(c4)OCO5)c3C#N)cs2)cc1 | ADORA1 | binding, radioligand competition | HEK293 membranes | added: [3H]DPCPX | reference: A2A Ki over A1 Ki | ~1000 fold
O=C(Cc1cccc(C(F)(F)F)c1)Nc1cc(Oc2c(Br)cc3nc(NC(=O)C4CC4)sc3c2Br)ccc1F | RIPK1 | KINOMEscan binding Kd | – | – | reference: RIPK1 over RIPK3, higher = more RIPK1-selective | > 19
N[C@@H](CCC(=O)N[C@@H](CS[Se]Cc1ccc(-c2cccc(C(O)c3ccc(Cl)c(Cl)c3)c2)cc1)C(=O)NCC(=O)O)C(=O)O (stereo partly drawn) | PTPN1 (Homo sapiens, UniProt P18031) | – | – | – | reference: IC50 PTPN1 over STEP | > 20 fold
CN1CCC=C(c2nsnc2OCCCN2CCN(CCCCC3CCN(CC(=O)N4c5ccccc5NC(=O)c5ccccc54)CC3)CC2)C1 | CHRM3 (Homo sapiens, UniProt P20309) | radioligand competition binding | CHO cells | – | reference: Ki M3 over Ki M2 | 180
Nc1ncnc2c1ncn2[C@@H]1O[C@H](C(=O)NCCCF)[C@@H](O)[C@H]1O | ADORA1 | – | – | – | reference: Ki A2A over Ki A1 | 78 fold
CC[C@H](C)[C@@H]1NC(=O)[C@H](Cc2ccc(O)cc2)NC(=O)[C@@H](N)CSSC[C@@H](C(=O)N2CCC[C@H]2C(=O)N[C@@H](CC(C)C)C(=O)NCC(N)=O)NC(=O)[C@H](CC(N)=O)NC(=O)[C@H](CCC(N)=O)NC1=O | oxytocin receptor (Mesocricetus auratus, UniProt A0A1U7Q6Y0) | competition binding | hamster brain sections | – | reference: OTR over V1aR Ki | 116
CC(O)c1c(Oc2ccc(F)c(NC(=O)Cc3cccc(C(F)(F)F)c3)c2)ccc2nc(NC(=O)C3CC3)sc12 (stereo not drawn) | RIPK1 | KINOMEscan binding Kd | – | – | reference: RIPK1 over RIPK3, higher = more RIPK1-selective | 6.4
CC[C@H](C)[C@H](NC(=O)[C@H](CCC(=O)O)NC(=O)[C@@H]1CCCN1C(=O)[C@H](CCCNC(=N)N)NC(C)=O)C(=O)N[C@@H](Cc1c[nH]c2ccccc12)C(=O)N[C@@H](Cc1ccc(O)cc1)C(=O)N[C@@H](C)C(=O)N[C@@H](CCC(N)=O)C(=O)NCC(=O)N[C@@H](CC(C)C)C(=O)N[C@@H](CCCCN)C(=O)N[C@@H](CCCNC(=N)N)C(=O)N[C@@H](Cc1ccccc1)C(=O)NCC(=O)N[C@@H](CC(=O)O)C(=O)N[C@@H](CCC(=O)O)C(=O)N[C@@H](Cc1ccccc1)C(=O)N[C@@H](CC(N)=O)C(=O)N[C@@H](C)C(=O)N[C@@H](Cc1ccc(O)cc1)C(=O)N[C@@H](CCCCN)C(=O)N[C@@H](C)C(=O)N[C@@H](CCCNC(=N)N)C(N)=O | BCL2 (Homo sapiens, UniProt P10415) | binding, fluorescence polarization | – | – | reference: Bcl-xL over Bcl-2 | ~1000 fold
Nc1nc2cnc(C(=O)N3CCOC[C@@H]3c3ccc(C(F)(F)F)cc3)cc2c2c1COC2 | Protein arginine N-methyltransferase 5, MTA-bound (PRMT5, Homo sapiens, UniProt O14744) | binding, surface plasmon resonance | – | – | reference: PRMT5-MTA over PRMT5-SAM affinity, higher = more MTA-selective | ~60 fold
O=C(Cc1cccc(C(F)(F)F)c1)Nc1cc(Oc2c(F)cc3nc(NC(=O)C4CC4)sc3c2Cl)ccc1F | RIPK1 | KINOMEscan binding Kd | – | – | reference: RIPK1 over RIPK3, higher = more RIPK1-selective | > 135
CSCC[C@@H]1NC(=O)[C@H](CCSC)NC(=O)[C@H](Cc2c[nH]c3ccccc23)NC(=O)[C@H]([C@@H](C)O)NC(=O)[C@@H]2CSSC[C@@H]3NC(=O)[C@H]([C@@H](C)O)NC(=O)[C@H](CC(N)=O)NC(=O)[C@H](CSSC[C@@H](C(=O)N[C@@H](CCCNC(=N)N)C(=O)N[C@@H](CCC(N)=O)C(=O)O)NC1=O)NC(=O)[C@H](CCCCN)NC(=O)[C@H](CC(=O)O)NC(=O)[C@H](CCCCN)NC(=O)[C@H](Cc1ccccc1)NC(=O)[C@H]([C@@H](C)O)NC(=O)[C@H]([C@@H](C)O)NC(=O)CNC(=O)[C@@H]1CCCN1C(=O)[C@H](CCC(=O)O)NC(=O)[C@@H](NC(=O)[C@@H](NC(=O)[C@@H](NC(=O)[C@@H](N)CCC(=O)O)C(C)C)[C@@H](C)O)CSSC[C@H](NC(=O)[C@H](CCCNC(=N)N)NC3=O)C(=O)NCC(=O)N[C@@H](CO)C(=O)N[C@@H](CC(=O)O)C(=O)NCC(=O)N[C@@H](CCCCN)C(=O)N[C@@H](CO)C(=O)N[C@@H](C)C(=O)NCC(=O)N2 | Chymotrypsinogen B2 (Homo sapiens, UniProt Q6GPI1, Y164H) | binding, equilibrium binding | – | – | reference: CTRB2 over CTRB1 | 3 fold
Cc1cc2nc(NC(=O)C3CC3)sc2c(C)c1Oc1ccc(F)c(NC(=O)Cc2cccc(C(F)(F)F)c2)c1 | RIPK1 | KINOMEscan binding Kd | – | – | reference: RIPK1 over RIPK3, higher = more RIPK1-selective | > 100
CNC(=O)N1CCN(c2ccc(NC(=O)c3nc(N)sc3-c3ccccc3)cc2C(F)(F)F)CC1 | DDR2 (Homo sapiens, UniProt Q16832) | binding, binding competition | – | – | reference: DDR1 over DDR2 | ~10 fold

Some of these lines once more:
Compound | target | assay | system | conditions | how to read | selectivity ratio
Nc1ncnc2c1ncn2[C@@H]1O[C@H](C(=O)NCCCF)[C@@H](O)[C@H]1O | ADORA1 | – | – | – | reference: Ki A2A over Ki A1 | 78 fold
Cc1cc2nc(NC(=O)C3CC3)sc2c(C)c1Oc1ccc(F)c(NC(=O)Cc2cccc(C(F)(F)F)c2)c1 | RIPK1 | KINOMEscan binding Kd | – | – | reference: RIPK1 over RIPK3, higher = more RIPK1-selective | > 100
